# Measurements of several laboratories.
# Parts stem from different laboratories: compare values within a part only. Substitutions count along the parent as printed.

# Study 1
# Target: ABI1, truncated, D143A, DHFR fusion (Arabidopsis thaliana)
# Method: DHFR PCA, deep sequencing
# Sample: yeast
# Setting: methotrexate growth selection, single substitutions
# With: (+)-ABA 58 µM
# Baseline: wild-type fitted maximum
# Direction: higher = stronger binding
# Starting sequence: PYL1, truncated, DHFR fusion (Arabidopsis thaliana); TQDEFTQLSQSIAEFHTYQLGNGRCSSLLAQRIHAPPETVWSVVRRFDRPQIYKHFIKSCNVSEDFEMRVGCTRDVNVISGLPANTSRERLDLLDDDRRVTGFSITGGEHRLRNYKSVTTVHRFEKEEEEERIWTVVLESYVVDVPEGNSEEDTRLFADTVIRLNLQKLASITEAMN; partner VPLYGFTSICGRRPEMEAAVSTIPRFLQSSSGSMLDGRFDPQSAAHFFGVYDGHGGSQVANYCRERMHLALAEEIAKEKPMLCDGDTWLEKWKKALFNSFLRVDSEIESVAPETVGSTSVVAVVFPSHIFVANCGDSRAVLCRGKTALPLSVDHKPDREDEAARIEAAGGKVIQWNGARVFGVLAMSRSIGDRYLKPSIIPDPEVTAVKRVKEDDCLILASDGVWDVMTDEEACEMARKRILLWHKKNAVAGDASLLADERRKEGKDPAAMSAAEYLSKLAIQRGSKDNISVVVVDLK
Substitution,relative binding score
S42D,91.1%
H34Q,90.8%
R155M,74.6%
I33L,14.9%
L169G,-3.14%
E125T,91.1%
N22Y,86.2%
H110G,26.9%
K116W,-1.68%
S27V,-9.22%
F157D,7.63%
A170L,36.5%
D144L,29.7%
I133H,99.4%

# Study 2
# Target: Histone acetyltransferase KAT6A, both winged helices, GST fusion (KAT6A, Homo sapiens, UniProt Q92794, residues 1-181)
# Method: protein binding microarray
# Form: double-stranded DNA, one strand shown
# Sample: in vitro
# Tested at: not given
# Setting: 8-mer, flanks averaged, mean of 2 arrays, mostly near background
# Baseline: not given
# Direction: higher = stronger binding
# Target sequence (chain): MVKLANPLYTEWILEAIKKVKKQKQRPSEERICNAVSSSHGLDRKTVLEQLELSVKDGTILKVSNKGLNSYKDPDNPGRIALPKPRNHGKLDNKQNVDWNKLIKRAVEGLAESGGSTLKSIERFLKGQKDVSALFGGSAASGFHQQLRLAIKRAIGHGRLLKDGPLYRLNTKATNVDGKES
Oligonucleotide,E-score
CGCACCCG,0.288
GATAGATA,-0.0858
AAGTCCGA,0.0826
AGTAACCG,0.0973
ACCGGAGA,0.0444
GAGTTAGA,-0.0919
GAGGCACA,-0.186
ACACAGGG,0.0123
GCACGAAA,-0.0333
ACGTCGGA,0.0848
TACTACCA,-0.192
ATGTGCCG,0.138
GAACGGAC,0.0714
TAAGGCAA,-0.153
CGTGTCGA,0.0398
ACTCTTTA,-0.174
CAGGAGCA,-0.191
TAACATGA,-0.049
ATTCTTTA,-0.114
CTAACAGC,-0.125
ATGACCCA,-0.227
CAGCTACG,0.00815
ACACGCCC,0.0864
CATCAACC,0.0118
CACCGACA,0.0186

# Study 3
# Target: Ras GTPase-activating protein-binding protein 1, full length (G3BP1, Homo sapiens, UniProt Q13283)
# UniProt Q13283, sequence (whole entry, looked up): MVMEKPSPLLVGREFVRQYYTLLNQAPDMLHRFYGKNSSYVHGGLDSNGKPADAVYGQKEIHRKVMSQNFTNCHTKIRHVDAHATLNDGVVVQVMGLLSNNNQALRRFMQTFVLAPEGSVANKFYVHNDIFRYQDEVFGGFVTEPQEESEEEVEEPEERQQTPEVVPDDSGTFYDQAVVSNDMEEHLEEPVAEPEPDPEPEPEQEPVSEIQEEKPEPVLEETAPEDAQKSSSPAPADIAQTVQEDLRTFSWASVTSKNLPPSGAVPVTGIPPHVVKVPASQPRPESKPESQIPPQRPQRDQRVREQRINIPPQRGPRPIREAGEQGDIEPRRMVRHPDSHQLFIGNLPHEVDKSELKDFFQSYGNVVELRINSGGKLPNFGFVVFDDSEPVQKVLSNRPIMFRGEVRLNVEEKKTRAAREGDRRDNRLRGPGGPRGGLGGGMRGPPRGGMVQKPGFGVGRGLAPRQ
# Method: RNA Bind-n-Seq
# Form: RNA
# Sample: in vitro
# Tested at: 200 nM
# Setting: whole 134-nt RNA, ends assumed
# With: 150 mM LiCl
# Baseline: input library
# Direction: higher = stronger binding
# All molecules: 7-deaza-guanosine replaces G
Oligonucleotide,log2 enrichment
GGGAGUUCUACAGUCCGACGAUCCUUAUGCCUUCCCCACUGGUAUUGAGGGUUUUGAUAAUAAAUUGGUAGGAAAAAAAAGUACCUCCUAGAAGGAAGCCUUCCCCACCAUUUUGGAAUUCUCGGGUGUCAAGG,0.711
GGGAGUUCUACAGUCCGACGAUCGCAGGAAGUAAAAACAAAUGGAAAUGCUUCGGAUAGUGGCAGGGGUGGGGGUUGCUAAGGAAAGGGUGGGAAAAGAGUGGGUAAAGAGUUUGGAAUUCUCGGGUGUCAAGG,0.226
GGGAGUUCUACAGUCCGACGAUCACCAUGCAGGUGGGCAUCUUUGGGAAGUGGGGCAAAGGGGGGAUAGGGAGGGGGGUAACACUUUGGGAACAGGUGGUCCCAGGUCGUUUCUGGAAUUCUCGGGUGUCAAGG,0.299
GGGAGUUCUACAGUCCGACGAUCACCAUGCAGGUUGGCAUCUUUGGGAAGUGGGGCAAGGGGGGGAUAGGGAGGGGGGUAACACUUUGGGAACAGGUGGUCCCAGGUCGUUUCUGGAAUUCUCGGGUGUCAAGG,0.129
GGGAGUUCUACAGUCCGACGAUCUUCCUCAAGUCCUGUGCUACACAUCGUAUGUACCGAAUCGGUGGUGGAGGAAAGUAUUAUGUUACGCCGUUCGGAUCUGCACUUCCAGCAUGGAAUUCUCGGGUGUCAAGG,-0.565
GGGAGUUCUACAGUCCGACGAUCUUUAGGUGUUAGACGGUACCGACAACCAGUAUUUGGGCCUGCAGAUUGGACAGCCCCAGGAUGAAGAUGAGGAAGCCACAGGUAUUCUUCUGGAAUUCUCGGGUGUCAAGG,-2.72
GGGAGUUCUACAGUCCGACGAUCCCUGUGCUACACAUCGUAUGUACCGAAUCGGGGUUUUUUGGGGUUUUUUGGUUUUUUGGGAAAGUAUUAUGUUACGCCGUUCGGAUCUGCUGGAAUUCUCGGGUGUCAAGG,0.578
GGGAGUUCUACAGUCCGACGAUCCAAGUCCUGUGCUACACAUCGUAUGUACCGAAUCGGGAAAGGGAGGGAAAAAGGGAAAGUAUUAUGUUACGCCGUUCGGAUCUGCACUUCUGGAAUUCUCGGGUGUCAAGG,-0.767
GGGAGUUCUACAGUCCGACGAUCCAAGUCCUGUGCUACACAUCGUAUGUACCGAAUCGGUUUUUUUGGAAAGGAAAGGAAAGUAUUAUGUUACGCCGUUCGGAUCUGCACUUCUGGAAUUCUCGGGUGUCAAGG,-0.772
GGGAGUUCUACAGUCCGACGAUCACCAUGCAGGUGGGCAUCUUUGGGAAGUGGGGCAAGGGGGGCAUAGGGAGGGGGGUAACACUUUGGGAACAGGUGGUCCCAGGUCGUUUCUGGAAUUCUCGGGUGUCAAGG,-0.475
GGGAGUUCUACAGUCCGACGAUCCUCAAGUCCUGUGCUACACAUCGUAUGUACCGAAUCGGAGGAAAAAGGAAAGGAAAGUAUUAUGUUACGCCGUUCGGAUCUGCACUUCCAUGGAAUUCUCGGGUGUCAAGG,-0.532

# Study 4
# Target: RNA binding protein fox-1 homolog 2, RRM domain, GST-SBP tag (RBFOX2, Homo sapiens, UniProt O43251-10, residues 100-194)
# Method: RNA Bind-n-Seq
# Form: RNA
# Sample: in vitro
# Tested at: 365 nM
# Setting: natural RNA segment, single round, ends assumed
# Baseline: no-protein control
# Direction: higher = stronger binding
# Residues (chain): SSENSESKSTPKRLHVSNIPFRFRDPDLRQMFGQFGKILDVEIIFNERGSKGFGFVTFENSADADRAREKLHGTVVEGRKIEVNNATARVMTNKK
Oligonucleotide,RBNS enrichment (R)
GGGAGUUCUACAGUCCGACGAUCUCUGUUAACUGAAUGCUUUGAUCAGCAUUGAGGUGAUGCUCACCUCCGAGGACCUCAGAACUGGUGCAGCUUCUCUCUCCCUCCCUCCCACAGACUGAACCUUUCGCCAGUGGAAUUCUCGGGUGCCAA,0.501
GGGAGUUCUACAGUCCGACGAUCUGGUUUUAGCUAUGCUUAUGAAAUUGAGAAACAAUUGCAAUGUUAAGAGUUUAUGUGAAGUAUACAUCUUUGUACUUGGAAGAGUCUAAGUUGUUUAUAUUUGGUAAAAGUGGAAUUCUCGGGUGCCAA,0.492
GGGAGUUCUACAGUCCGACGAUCUCAGGUUCUGACAAGGUGCAAAGCGUGGGGAGGCUCUGAGGAAUAUGAAGAGUGGGAAGGCGGCCUAGGCUCCAUGGGCCACUAUGAGAAAUAGCCUCUCUUUCCUGGGAUGGAAUUCUCGGGUGCCAA,0.379
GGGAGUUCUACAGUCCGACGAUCGCCCUACUUCCGCUCGAUGCUGCCAAUGUCACCAACAGCAAUGGGGCCCACCAUCAGCCUGGACCUGGACGUGGAUGAUGUGGAGAUGGAGAACUAUGAGGCCCUCCUGAUGGAAUUCUCGGGUGCCAA,0.464
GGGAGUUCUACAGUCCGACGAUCAAUUACUUUUUUUUACUGUUGCUGGAAGUGUCCCACCUGCUGCUCAUAAUAAAUGCAGAUGUAUAGCGUCCUGUCUGGGGCCCAUUCUGCAGGGGUGGUGGGUGCUGGGAUGGAAUUCUCGGGUGCCAA,0.348
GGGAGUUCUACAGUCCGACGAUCGGUGGUCAACUACCUGUGCAAUAUUUAUGUCUUGAAAACCAGAUCUGAGUAUGCAUUGAACAGUGGGGAUAUUAUAAACAGAAGCGCCUCUCUGAAGAACCCGGUUUCCGUGGAAUUCUCGGGUGCCAA,0.178
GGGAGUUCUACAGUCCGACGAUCGCCUGCGCUGACCUCCGAGUGCCCUUCCCGAGGGCAGUGCCAGGUGCAUGCUGCUUCCGACACUGGCGCUGAGAUCCCUCCCCGAGGGGCUCUGUCUCUGCCUUGACCUCUGGAAUUCUCGGGUGCCAA,11.6
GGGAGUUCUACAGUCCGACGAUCACAAUGUUCCAGUUCUUUUUGUACUGUGGAAUCAACAUGACACCAUCUCAUUGAUUAUUGACACCUUGAGGUCUGAAGGAUUCCACACUCGAGGAUGCUGACCUAAGCCAUGGAAUUCUCGGGUGCCAA,0.254
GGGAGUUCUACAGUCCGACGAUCCUCGUGCCAAGAAGCCCUGGGCCAGGGCCAGGUGUUUCCAGAGCCAAGUGCCCAUGUGUGUAUGGGAAGAGGUGGCUAAAGCCACUAGACUAGGGUGCUCACCCCUCAAGUGGAAUUCUCGGGUGCCAA,0.411
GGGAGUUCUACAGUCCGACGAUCGUAGAUGUUAGGACCAACUGAGAAGGUCCAACACAAGUGUGGAUUUUUCCAUGUGUCAAAAAUCUCAUCACCCCACUUGCCUAAUUAGAGUAACCCAGCCCCUAAAUUUAUGGAAUUCUCGGGUGCCAA,0.455
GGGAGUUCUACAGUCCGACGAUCCUCAGCAUUUACUUUGUUUCUUUUGCUUAGGAAAUUGCUCAUAAUCUGGUUAUAAUUUUGGUCCAAAUUCUUUAUUCUUCCUUGAGCUAAGCAGAAUAAUGGAAUAUAAUUGGAAUUCUCGGGUGCCAA,0.528
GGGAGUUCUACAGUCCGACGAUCGAAGUUCUGCUCCUUAGCCAUCCUUUCCUGUAAUUUAUGUCUCUCCCUGAGGUGAGGUUCAGGUUUAUGUCCCUGUCUGUGGCAUAGAUACAUCUCAGUGACCCAGGGUGUGGAAUUCUCGGGUGCCAA,0.272

# Study 5
# Target: Hepatocyte nuclear factor 3-beta, forkhead domain (FOXA2, Homo sapiens, UniProt Q9Y261, residues 142-269)
# Method: protein-binding microarray
# Form: double-stranded DNA, one strand shown
# Sample: in vitro
# Tested at: not given
# Setting: k-mer, scored over probes, only values ≥0.25
# Direction: higher = stronger binding
# Target sequence (chain): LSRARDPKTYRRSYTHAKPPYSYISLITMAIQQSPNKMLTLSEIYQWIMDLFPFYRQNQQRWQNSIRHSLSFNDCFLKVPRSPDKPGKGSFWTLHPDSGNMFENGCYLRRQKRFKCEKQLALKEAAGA
Oligonucleotide,E-score
TCCAACAA,0.258
TAGTTACA,0.295
AAATGTGG,0.289
TACATTGA,0.257
TATACAAA,0.394
AAACGTAT,0.257
GTTATTTA,0.323
TAATATAA,0.354
AACACAGT,0.292
AATGTGAT,0.302
AAATATGT,0.407
CAATAATA,0.32
ATATGTCA,0.27
AACACATA,0.408
CTATCACA,0.26
AGATACAA,0.345
AAATAGAT,0.284
ACTCTTAC,0.273
CTATAAAC,0.274
AATACTAC,0.299
CCAATAAC,0.259
ATATGTAA,0.296
AGTTTGTA,0.283
ACTTGTAA,0.251

# Repeated from above (study 2):
Oligonucleotide,E-score
GAGTTAGA,-0.0919
GATAGATA,-0.0858
ACGTCGGA,0.0848
CGCACCCG,0.288
AAGTCCGA,0.0826
TAACATGA,-0.049
CAGGAGCA,-0.191
ACCGGAGA,0.0444
CAGCTACG,0.00815
